Measurements from different studies.
Several values in a cell are separate wells, animals, samples, runs or records. ± marks the error that the study gave. No end group written: not given here.
LGB: Beta-lactoglobulin (LGB, Bos taurus, UniProt P02754)
CYP1B1: Cytochrome P450 1B1 (CYP1B1, Homo sapiens, UniProt Q16678)
methionine aminopeptidase: methionine aminopeptidase (Acinetobacter baumannii, UniProt A0A7U4DGZ4)
L-ornithine N(5)-monooxygenase: L-ornithine N(5)-monooxygenase (Neosartorya fumigata, UniProt E9QYP0)
B1: bicyclic; chain ACSMCHPQGDFCYWACSG (also: bicyclic or more (positions not given here))

| Substance | target | test | test system | setting | Kd |
| --- | --- | --- | --- | --- | --- |
| CC1=C(/C=C/C(C)=C/C=C/C(C)=C/C=C/C=C(C)/C=C/C=C(C)/C=C/C2=C(C)C[C@@H](O)CC2(C)C)C(C)(C)C[C@H](O)C1 | LGB | binding | – | – | 3.07 ± 0.04 µM |
| Nc1ncnc2c1ncn2[C@H]1C[C@H](O)[C@@H](COP(=O)(O)OP(=O)(O)OP(=O)(O)O)O1 | DNA-directed DNA polymerase (43, Escherichia phage RB69, UniProt Q38087, D222A/D327A) | pre-steady-state kinetics | – | dNTP incorporation opposite tC° | 1700 ± 190 µM |
| Nc1nc2c(ncn2[C@@H]2O[C@H](COP(=O)(O)OP(=O)(O)OP(=O)(O)O)[C@@H](O)[C@H]2O)c(=O)[nH]1 | GMP reductase (GMPR, Leishmania major, UniProt Q4QEB3) | binding, fluorescence titration | – | second site, no NADPH | 369 ± 18 µM |
| Nc1ncnc2c1ncn2[C@@H]1O[C@H](COP(=O)(O)OP(=O)(O)OP(=O)(O)OP(=O)(O)OP(=O)(O)OC[C@H]2O[C@@H](n3cnc4c(N)ncnc43)[C@H](O)[C@@H]2O)[C@@H](O)[C@H]1O | guaB (Bacillus subtilis, UniProt P21879) | – | – | – | 30.4 ± 23.5 µM |
| O=C(O[C@@H]1Cc2c(O)cc(O)cc2O[C@@H]1c1cc(O)c(O)c(O)c1)c1cc(O)c(O)c(O)c1 | Beta-2-microglobulin, Cu(II)-bound (B2M, Homo sapiens, UniProt P61769) | binding to Cu(II)-β2m, covalent labelling MS (DEPC, Lys6) | – | added: Cu(II) 60 µM | 3 ± 2 µM |
| [N-]=[N+]=Nc1ccc[n+]([C@@H]2O[C@H](COP(=O)([O-])OP(=O)(O)OC[C@H]3O[C@@H](n4cnc5c(N)ncnc54)[C@H](O)[C@@H]3O)[C@@H](O)[C@H]2O)c1 | glucose dehydrogenase (Bacillus megaterium) | tryptophan fluorescence quenching | – | pH 7.5, added: gluconolactone | 142 µM |
| C#Cc1cc2cccc3ccc4cccc1c4c32 | CYP1B1 | binding, fluorescence | – | pH 7.4 | < 2.5 µM and 0.9 µM |
| Nc1ncnc2c1ncn2[C@@H]1O[C@H](COP(=O)(O)OP(=O)(O)OP(=O)(O)O)[C@@H](O)[C@H]1O | Chemotaxis protein CheA, P4 domain (cheA, Thermotoga maritima, UniProt Q56310) | binding, competition with TNP analogue | – | 4 °C, added: Mg2+ | 11 ± 4 µM |
| C#Cc1cc2ccc3cccc4ccc(c1)c2c34 | CYP1B1 | binding, fluorescence | – | pH 7.4 | 2.1 µM and < 2.5 µM |
| C[n+]1cn([C@@H]2O[C@H](COP(=O)(O)OP(=O)([O-])OP(=O)(O)OC[C@H]3O[C@@H](n4cnc5c(=O)[nH]c(N)nc54)[C@H](O)[C@@H]3O)[C@@H](O)[C@H]2O)c2nc(N)[nH]c(=O)c21 | m7GpppX diphosphatase (DCS1, Saccharomyces cerevisiae, UniProt Q06151, H268N/K126A) | isothermal titration calorimetry | – | 25 °C, open site, K126A H268N | 280 µM |
| COc1cc(C(=O)NS(=O)(=O)c2ccccc2C)ccc1Cc1cn(C)c2ccc(NC(=O)OC3CCCC3)cc12 | dnaK (Escherichia coli, UniProt P0A6Y8) | binding, tryptophan fluorescence | – | 20 min, 37 °C, added: ATP 1 mM | 13 ± 1.7 µM |
| [Mn+2] | methionine aminopeptidase | metal binding, activator, activity titration | ATCC 17978 | divalent metal ion Kd, added: Met-AMC substrate | 0.57 µM |
| CC(=O)N[C@@H](C)C(=O)N[C@H]1CSSC[C@@H](C(=O)NCC(=O)N[C@@H](CO)C(=O)NCC(=O)N[C@@H](CO)C(=O)N[C@@H](CC(=O)O)C(=O)N[C@@H](Cc2ccc(O)cc2)C(=O)N[C@@H](CCCCN)C(=O)N[C@@H](CC(=O)O)C(=O)N[C@@H](CC(=O)O)C(=O)N[C@@H](CC(=O)O)C(=O)N[C@@H](CC(=O)O)C(=O)N[C@@H](CCCCN)C(N)=O)NC(=O)[C@H](Cc2ccccc2)NC(=O)[C@@H]2CCCN2C(=O)[C@H](Cc2c[nH]c3ccccc23)NC(=O)[C@H](CC(C)C)NC(=O)[C@H](CC(C)C)NC(=O)[C@H](CCC(=O)O)NC(=O)[C@H](Cc2ccccc2)NC(=O)[C@H](Cc2c[nH]cn2)NC(=O)[C@H](CCCNC(=N)N)NC(=O)[C@H](Cc2ccccc2)NC1=O | Gastric inhibitory polypeptide receptor, extracellular domain (GIPR, Homo sapiens, UniProt P48546) | binding, biolayer interferometry | – | – | 0.031 µM |
| Nc1ncnc2c1ncn2[C@@H]1O[C@H](COP(=O)(O)OP(=O)(O)O)[C@@H](O)[C@H]1O | L-ornithine N(5)-monooxygenase | fluorescence polarization displacement | – | pH 7.0, added: 30 nM fluorescent probe | 11 ± 1 µM |
| maltotriose | malE (Escherichia coli, UniProt P0AEX9) | ClyA nanopore single-channel recording | – | – | 0.15 ± 0.01 µM |
| Cc1cc2ccccc2c2ccc3ccccc3c12 | CYP1B1 | binding, fluorescence | – | pH 7.4 | < 2.5 µM and 1.9 µM |

| Substance | target | test | test system | setting | Kd |
| --- | --- | --- | --- | --- | --- |
| TAMRA-ATP | mutS (Escherichia coli, UniProt P23909, D693N) | fluorescence anisotropy | – | room temperature, no DNA | 0.505 ± 0.025 µM |
| Nc1nc2c(ncn2[C@H]2C[C@H](O)[C@@H](COP(=O)(O)OP(=O)(O)OP(=O)(O)O)O2)c(=O)[nH]1 | DNA-directed DNA polymerase, with primer/template (43, Escherichia phage RB69, UniProt Q38087, D222A/D327A/Y567A) | fluorescence titration | – | dNTP opposite tC° | 0.5 ± 0.2 µM |
| 5′-methylthioadenosine | MTAP (Homo sapiens, UniProt Q13126) | ligand, isothermal titration calorimetry | – | pH 7.4, 25 °C, first set of sites | 0.008 ± 0.005 µM |
| Nc1ccn([C@H]2C[C@H](O)[C@@H](COP(=O)(O)OP(=O)(O)OP(=O)(O)O)O2)c(=O)n1 | DNA polymerase IV, with DNA (dbh, Saccharolobus solfataricus, UniProt Q97W02) | dNTP incorporation, substrate, single-turnover kinetics | – | 37 °C, insertion opposite lesion, added: DNA with dG-C8-N-ABA lesion, Dpo4 120 nM | 510 ± 60 µM |
| B1 | Streptavidin (Streptomyces avidinii, UniProt P22629) | yeast display flow cytometry | – | – | 0.0021 µM |
| CC[C@H](C)[C@H](NC(=O)[C@H](CC(=O)O)NC(=O)CNC(=O)[C@H](CCC(N)=O)NC(=O)[C@H](C)NC(=O)[C@H](C)NC(=O)[C@H](CCCNC(=N)N)NC(=O)[C@H](CC(N)=O)NC(=O)[C@H](CCC(=O)O)NC(=O)[C@H](CC(C)C)NC(=O)[C@@H](NC(=O)[C@@H]1CCCN1C(=O)[C@H](CCSC)NC(=O)[C@H](CCC(=O)O)NC(=O)[C@@H]1CCCN1C(=O)[C@@H](NC(=O)[C@H](CCCNC(=N)N)NC(=O)[C@H](C)NC(=O)[C@H](CCCCN)NC(=O)[C@@H](NC(=O)[C@@H](NC(=O)[C@@H]1CCCN1C(=O)[C@@H](NC(=O)[C@H](Cc1ccc(O)cc1)NC(=O)[C@H](CC(C)C)NC(=O)[C@H](CC(C)C)NC(=O)[C@@H]1CCCN1C(=O)[C@H](CC(C)C)NC(=O)[C@H](CC(C)C)NC(=O)[C@H](C)NC(=O)[C@H](CC(C)C)NC(=O)[C@H](C)NC(=O)[C@@H](NC(=O)[C@@H](NC(=O)[C@H](CO)NC(=O)[C@H](CCC(N)=O)NC(=O)[C@H](CCCCN)NC(=O)[C@H](CS)NC(=O)[C@@H](N)CCSC)[C@@H](C)O)[C@@H](C)CC)[C@@H](C)O)C(C)C)[C@@H](C)O)[C@@H](C)O)C(C)C)C(=O)N[C@H](C(=O)N[C@@H](C)C(N)=O)[C@@H](C)O | secA (Escherichia coli, UniProt P10408, C885S/C887S/C896S/C98S/S696C) | fluorescence anisotropy | – | pH 7.5, mutant, added: IAN-labelled signal peptide 1 µM | 7.5 ± 1.3 µM |
| CC(=O)N[C@@H](Cc1c[nH]c2ccccc12)C(=O)N[C@@H](CCCCN)C(=O)N[C@@H](CCCCN)C(=O)N[C@@H](CC(C)C)C(=O)N[C@@H](CC(C)C)C(=O)N[C@@H](CCCCN)C(=O)N[C@@H](CC(C)C)C(=O)N[C@@H](CC(C)C)C(=O)N[C@@H](CCCCN)C(=O)N[C@@H](CCCCN)C(=O)N[C@@H](CC(C)C)C(=O)N[C@@H](CC(C)C)C(=O)N[C@@H](CCCCN)C(=O)N[C@@H](CC(C)C)C(=O)N[C@@H](C)C(=O)NCC(N)=O | HCV IRES domain IV hairpin | competitive fluorescence anisotropy | – | pH 7.4, 20 °C, added: rhodamine-Rev peptide | 0.00074 ± 7e-05 µM |
| Oc1ccccc1-c1ccccc1O | SUMO-conjugating enzyme UBC9 (Homo sapiens, UniProt P63279) | binding, surface plasmon resonance | – | saturation not reached | > 2000 µM |
| COc1ccc2cc3[n+](cc2c1OC)CCc1cc2c(cc1-3)OCO2 | HTH-type transcriptional regulator QacR (qacR, Staphylococcus aureus, UniProt P0A0N4, E58A) | – | – | – | 1.35 ± 0.1 µM |
| NC(=O)c1ccc[n+]([C@@H]2O[C@H](COP(=O)([O-])OP(=O)(O)OC[C@H]3O[C@@H](n4cnc5c(N)ncnc54)[C@H](O)[C@@H]3O)[C@@H](O)[C@H]2O)c1 | L-ornithine N(5)-monooxygenase | fluorescence polarization displacement | – | pH 7.0, added: 30 nM fluorescent probe | 70 ± 20 µM |
| CC(=O)N[C@@H](CC(C)C)C(=O)N[C@@H](CCCCN)C(=O)N[C@@H](CCCCN)C(=O)N[C@@H](CC(C)C)C(=O)N[C@@H](Cc1c[nH]c2ccccc12)C(=O)N[C@@H](CCCCN)C(=O)N[C@@H](CC(C)C)C(=O)N[C@@H](CC(C)C)C(=O)N[C@@H](CCCCN)C(=O)N[C@@H](CCCCN)C(=O)N[C@@H](CC(C)C)C(=O)N[C@@H](CC(C)C)C(=O)N[C@@H](CCCCN)C(=O)N[C@@H](CC(C)C)C(=O)N[C@@H](C)C(=O)NCC(N)=O | HCV IRES domain IV hairpin | competitive fluorescence anisotropy | – | pH 7.4, 20 °C, added: rhodamine-Rev peptide | 0.0028 ± 0.0002 µM |
| CC(C)[C@H](NC(=O)[C@H](CC(N)=O)NC(=O)CNC(=O)[C@H](CC(=O)O)NC(=O)[C@H](CCCNC(=N)N)NC(=O)[C@H](CC(N)=O)NC(=O)[C@@H](N)CC(=O)O)C(=O)N[C@@H](Cc1ccc(O)cc1)C(=O)N[C@@H](Cc1ccc(O)cc1)C(=O)N[C@@H](Cc1ccccc1)C(=O)O | Serine endoprotease DegS (degS, Escherichia coli, UniProt P0AEE3, K243D) | – | – | – | 0.14 µM |
| CC1=C(/C=C/C(C)=C/C=C/C(C)=C/C=C/C=C(C)/C=C/C=C(C)/C=C/C2=C(C)CCCC2(C)C)C(C)(C)CCC1 | LGB | binding | – | – | 2.27 ± 0.03 µM |
| [Cl-].[Cl-].[Mg+2] | Genome polyprotein, NS3 helicase domain (Hepatitis C virus genotype 1b, UniProt Q9WMX2) | binding, FRET | – | pH 6.25, added: 2 µM mantADP-BeF3 | 153 µM |
| Nc1ccccc1C(=O)CC(N)C(=O)O (centres unmarked) | Kynurenine 3-monooxygenase (Pseudomonas fluorescens, UniProt Q84HF5) | fluorescence polarization displacement | – | pH 7.0, added: 30 nM fluorescent probe | 180 ± 40 µM |
| [Fe+2] | methionine aminopeptidase | metal binding, activator, activity titration | ATCC 17978 | divalent metal ion Kd, added: Met-AMC substrate | 0.14 µM |

Some of these lines once more:
| Substance | target | test | test system | setting | Kd |
| --- | --- | --- | --- | --- | --- |
| CC1=C(/C=C/C(C)=C/C=C/C(C)=C/C=C/C=C(C)/C=C/C=C(C)/C=C/C2=C(C)C[C@@H](O)CC2(C)C)C(C)(C)C[C@H](O)C1 | LGB | binding | – | – | 3.07 ± 0.04 µM |
| 5′-methylthioadenosine | MTAP (Homo sapiens, UniProt Q13126) | ligand, isothermal titration calorimetry | – | pH 7.4, 25 °C, first set of sites | 0.008 ± 0.005 µM |
| TAMRA-ATP | mutS (Escherichia coli, UniProt P23909, D693N) | fluorescence anisotropy | – | room temperature, no DNA | 0.505 ± 0.025 µM |
